Experimental data collected from several papers.
Parts stem from different laboratories: compare values within a part only.

Sample 1
Target: Centromere-binding protein 1, full length, N-terminal tag (CBF1, Saccharomyces cerevisiae, UniProt P17106, residues 1-351)
UniProt P17106, sequence (whole entry, looked up): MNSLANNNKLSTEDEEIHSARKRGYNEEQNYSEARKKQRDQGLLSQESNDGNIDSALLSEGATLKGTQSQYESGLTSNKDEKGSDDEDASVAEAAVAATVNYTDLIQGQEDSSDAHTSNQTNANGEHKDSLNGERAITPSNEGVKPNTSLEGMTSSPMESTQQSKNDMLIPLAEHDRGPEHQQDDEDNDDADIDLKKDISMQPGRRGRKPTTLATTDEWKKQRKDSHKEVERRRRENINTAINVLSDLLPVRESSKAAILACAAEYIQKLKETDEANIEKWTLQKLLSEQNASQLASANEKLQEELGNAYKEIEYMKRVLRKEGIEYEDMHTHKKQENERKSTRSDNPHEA
Technique: protein-binding microarray
Form: double-stranded DNA, one strand shown
Medium: in vitro
Concentration: 0.8 µM
Notes: whole 60-bp probe, no competitor
Reading: higher = stronger binding
Constant ends, left off below: … GTCTTGATTCGCTTGACGCTGCTG
Oligonucleotide | fluorescence intensity [a.u.]
GAAGTATCGTGATATATCGTGATTTACAACTGGTAG | 884
CTATGAAGCATCTGGATCACCAGTACAAACAGTTTC | 510
TGTACGAAGCTATGTCACGAAGATATAGTAGTTAGG | 563
CCTAACTACTATAAGCGCGTGACATAGCTTCGTACA | 1710
TGTACGAAGCTATATCAGTTGAATATAGTAGTTAGG | 552
GAAAATAACGCACATGGTGGTGTACGGGTGTGTTAG | 1230
GAAGCCGAGAGGAAGCGCGTGATGAAAGCACGATAG | 1100
GAATAAAGCAGAAATCACGATTCAAAAAAAAAATAG | 717
GAATTTTGTGATGGCCACGAGGGTCCTTTCACTTAG | 550
GAAATCCTTTAACGCCTCATGATTATTGAATAGTAG | 594

Sample 2
Target: Histone acetyltransferase KAT6A, both winged helices, GST fusion (KAT6A, Homo sapiens, UniProt Q92794, residues 1-181)
Technique: protein binding microarray
Form: double-stranded DNA, one strand shown
Medium: in vitro
Concentration: not given
Notes: 8-mer, flanks averaged, mean of 2 arrays, mostly near background
Relative to: not given
Reading: higher = stronger binding
Construct (chain): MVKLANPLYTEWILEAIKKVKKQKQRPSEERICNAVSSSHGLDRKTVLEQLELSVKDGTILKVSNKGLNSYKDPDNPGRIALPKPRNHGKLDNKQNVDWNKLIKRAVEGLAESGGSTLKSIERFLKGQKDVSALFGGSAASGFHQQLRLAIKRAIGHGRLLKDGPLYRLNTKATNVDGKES
Oligonucleotide | E-score
CATAACTA | 0.0302
TCCCGTAA | 0.131
GCAGAGCC | 0.0597
CGTAGACA | -0.0172
ATTGCCGA | 0.175
GGCATACA | 0.0202
GGGAACTA | 0.0424
GGGTAGCA | 0.131

Sample 3
Target: Interferon regulatory factor 7, full length, phosphomimetic (IRF7, Homo sapiens, UniProt Q92985, residues 1-503, S101K/S471D/S472D/S475D/S476D/S477D/S483D/S484D/S487D)
Technique: protein-binding microarray
Form: double-stranded DNA, one strand shown
Medium: in vitro
Concentration: 250 nM
Notes: 60-bp whole probe
With: salmon DNA 0.4 mg/ml
Relative to: random background probes
Reading: higher = stronger binding
Constant ends, left off below: GCCTAGCAC … GTCTTGATTCGCTTGACGCTGCTG
Target sequence (chain): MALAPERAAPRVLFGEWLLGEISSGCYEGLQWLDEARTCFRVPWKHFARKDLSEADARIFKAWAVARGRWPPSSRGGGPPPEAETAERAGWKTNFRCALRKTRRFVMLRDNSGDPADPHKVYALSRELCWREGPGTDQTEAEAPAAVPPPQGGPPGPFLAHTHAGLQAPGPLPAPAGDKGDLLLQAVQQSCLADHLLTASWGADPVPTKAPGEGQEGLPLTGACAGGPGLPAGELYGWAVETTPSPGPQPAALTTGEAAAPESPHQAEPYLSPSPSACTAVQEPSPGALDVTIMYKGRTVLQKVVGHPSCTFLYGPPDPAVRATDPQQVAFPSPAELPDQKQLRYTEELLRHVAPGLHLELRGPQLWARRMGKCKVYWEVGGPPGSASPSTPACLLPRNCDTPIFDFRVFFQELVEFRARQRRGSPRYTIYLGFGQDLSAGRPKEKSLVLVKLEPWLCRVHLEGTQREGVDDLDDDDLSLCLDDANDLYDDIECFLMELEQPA
Oligonucleotide | log fluorescence
GCAGACTACCTATGAGTATCGTGCTAG | -0.478 z-score
TTCGGTTTCGGACTGGGTTAGTGCTAG | 4.82 z-score
GACGGTCTCCTACTGCTCACGTGCTAG | -0.205 z-score
TCAGGTTTCGACTATCGGTTAGTGCTA | 5.65 z-score
GACTAACTGAGTTTCGAGACGTGCTAG | 3.94 z-score
TTAGGTATCGACACTGGGTTCGTGCTA | -0.0232 z-score
TTAGGTTTCGTCTTTCGGTTAGTGCTA | 9.66 z-score
GACGGTTCCGGGACTGGGGACGTGCTA | 0.443 z-score
TCAGGTCTCCTTATCCTTTAGTGCTAG | 0.421 z-score
TTAGGTTTCCTTTTCCTTTCGTGCTAG | 6.83 z-score
TCATGTTTGGGTCTTGTACTGTGCTAG | 0.318 z-score

Other studies, line by line
Substance | target | assay | test system | setting | how to read | endpoint | result
PhoQ, residues 284 288 289 292 302 303 TTSMTC | PhoP, residues 12 14 15 18 19 HEGLL (Escherichia coli, UniProt P23836) | Sort-seq, measured: YFP reporter | E. coli | PhoQ-PhoP variant library, with: 10 µM Mg2+ | relative to: high Mg2+ state, higher = stronger signaling | fold induction | 4.45

For quick reference, copied from above (sample 3):
Oligonucleotide | log fluorescence
TTAGGTATCGACACTGGGTTCGTGCTA | -0.0232 z-score
GACGGTTCCGGGACTGGGGACGTGCTA | 0.443 z-score
GACGGTCTCCTACTGCTCACGTGCTAG | -0.205 z-score
TTAGGTTTCCTTTTCCTTTCGTGCTAG | 6.83 z-score
TCAGGTTTCGACTATCGGTTAGTGCTA | 5.65 z-score
